Measured values collected from several papers.
Lines come from different studies, so protocols differ. ± gives the spread as reported.

The induction factor of `O=[N+]([O-])c1ccc(N2CCN(CCC(O)c3ccc(F)cc3)CC2)c(C(F)(F)F)c1` (stereo not drawn) is reported as 1.1 (Salmonella typhimurium; genotoxicity, SOS/umu test; TA1535/pSK1002; 0.016 mg/mL, 4 h, with S9, full range).
For `CC(C)N(C)N=O`, “revertant colonies per plate” read 169 ± 12 (Salmonella typhimurium; mutagenicity, Ames plate incorporation; TA100; 2500 µg/plate, 3 d, without S9, methanol).
`COc1cccc(-c2n[nH]c(SCc3ccccn3)n2)c1OC`: “revertant colonies per plate” 143 (Salmonella typhimurium; Ames test, preincubation; TA100; 0.063 mg/plate, with rat liver S9).
For `Cc1cc(C(=O)NC(C)(C)COc2cccc3c2C(N)=NS(=O)(=O)N3)cc(C)n1`, the revertant ratio was 0.8 (Salmonella typhimurium; Ames test, confirmatory; TA1535; 100 µg/plate, added: rat liver S9; reference: solvent control).
`Fc1ccc(C2=CCNCC2)cc1` gave a survival of 99.5% (Salmonella typhimurium; SOS/umu test; TA1535/pSK1002; 0.016 mg/mL, 4 h, without S9, full range).
`CN1CC[C@H](c2c(O)cc(O)c3c(=O)cc(-c4ccccc4Cl)oc23)[C@H](O)C1` gave a maximum inhibition of 0% (human coronavirus OC43; virus-induced cell killing; MRC-5; maximum over 10 doses).
`N#C[C@@]1(n2ccc(N)nc2=O)O[C@H](CO)[C@@H](O)[C@H]1O` has a viability of 93 (Salmonella typhimurium; TA100; 25 µM, without S9, unit not given; reference: control).
`COc1c(C)cnc(Cn2cnc3c(Cl)nc(N)nc32)c1C` gave a maximum inhibition of 5.79% (human coronavirus OC43; virus-induced cell killing; MRC-5; screen).
Under “revertant colonies per plate”, `CN(N=O)c1ccc(F)cc1` is recorded as 165 ± 28 (Salmonella typhimurium; mutagenicity, Ames plate incorporation; TA100; 1500 µg/plate, 3 d, without S9, methanol).
`OC(CCN1CC=C(c2ccc(F)cc2)CC1)c1ccc(F)c2ccccc12` (stereo not drawn) has an induction factor of 1 (Salmonella typhimurium; genotoxicity, SOS/umu test; TA1535/pSK1002; 0.016 mg/mL, 4 h, with S9, full range).
For `CNC(=O)c1c(N(C)N=O)ncn1C`, “revertant colonies per plate” read 8 ± 3 (Salmonella typhimurium; mutagenicity, Ames plate incorporation; TA1537; 1500 µg/plate, without S9, methanol).
Under “revertant fold increase”, `CC(=O)N1CCC(C(=O)N2CCN3C(=O)c4cc(-c5ccccc5)ccc4NC(=O)C3C2)CC1` (stereo not drawn) is recorded as 0.9 (Salmonella typhimurium; TA100; 1.58 µg/plate, added: rat liver S9; reference: vehicle control).
